Results gathered from unrelated publications.
Lines come from different studies, so protocols differ. “And” joins repeats or separate records; there may be more than shown. Numbers after ± are the reported error.
ZBTB11/CRBN: ZBTB11/CRBN (Homo sapiens, UniProt O95625+Q96SW2)
Chain of UniProt Q64663 (whole entry, unmodified, looked up): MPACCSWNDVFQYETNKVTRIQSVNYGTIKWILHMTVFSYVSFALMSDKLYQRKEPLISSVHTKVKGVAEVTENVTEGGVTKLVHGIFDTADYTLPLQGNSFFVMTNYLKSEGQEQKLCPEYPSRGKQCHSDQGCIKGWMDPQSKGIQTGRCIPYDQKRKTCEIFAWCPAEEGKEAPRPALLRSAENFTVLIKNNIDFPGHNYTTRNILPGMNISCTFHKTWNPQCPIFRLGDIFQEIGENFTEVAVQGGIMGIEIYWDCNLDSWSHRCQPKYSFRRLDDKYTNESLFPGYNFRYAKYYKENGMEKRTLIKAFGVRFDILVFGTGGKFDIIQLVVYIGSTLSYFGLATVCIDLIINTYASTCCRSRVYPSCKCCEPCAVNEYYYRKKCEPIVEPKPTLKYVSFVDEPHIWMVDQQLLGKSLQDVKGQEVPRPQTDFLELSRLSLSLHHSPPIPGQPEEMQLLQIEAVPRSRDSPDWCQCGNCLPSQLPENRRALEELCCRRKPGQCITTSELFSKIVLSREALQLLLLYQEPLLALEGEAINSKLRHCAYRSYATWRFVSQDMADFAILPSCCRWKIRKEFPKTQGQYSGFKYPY
Chain of UniProt P05164 (whole entry, looked up): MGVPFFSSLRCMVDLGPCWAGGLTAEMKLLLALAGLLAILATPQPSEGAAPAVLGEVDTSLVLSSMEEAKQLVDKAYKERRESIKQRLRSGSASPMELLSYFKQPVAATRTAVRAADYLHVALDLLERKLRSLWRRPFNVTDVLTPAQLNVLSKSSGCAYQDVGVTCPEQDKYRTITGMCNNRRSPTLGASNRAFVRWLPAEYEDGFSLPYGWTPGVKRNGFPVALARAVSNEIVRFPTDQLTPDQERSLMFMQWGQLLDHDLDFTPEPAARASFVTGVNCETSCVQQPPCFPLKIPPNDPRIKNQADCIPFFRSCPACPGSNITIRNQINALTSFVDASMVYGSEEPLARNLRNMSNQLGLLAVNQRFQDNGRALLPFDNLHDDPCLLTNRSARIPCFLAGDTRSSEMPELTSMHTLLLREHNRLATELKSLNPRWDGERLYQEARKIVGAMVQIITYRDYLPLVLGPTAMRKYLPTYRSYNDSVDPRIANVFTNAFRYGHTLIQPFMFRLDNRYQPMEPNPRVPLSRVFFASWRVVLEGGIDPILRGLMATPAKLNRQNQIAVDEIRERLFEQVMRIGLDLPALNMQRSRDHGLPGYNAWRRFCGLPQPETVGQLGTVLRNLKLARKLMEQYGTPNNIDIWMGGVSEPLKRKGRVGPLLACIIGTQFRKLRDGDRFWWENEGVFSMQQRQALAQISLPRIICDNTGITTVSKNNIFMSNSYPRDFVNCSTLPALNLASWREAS
Chain of UniProt Q1KMD3 (whole entry, looked up): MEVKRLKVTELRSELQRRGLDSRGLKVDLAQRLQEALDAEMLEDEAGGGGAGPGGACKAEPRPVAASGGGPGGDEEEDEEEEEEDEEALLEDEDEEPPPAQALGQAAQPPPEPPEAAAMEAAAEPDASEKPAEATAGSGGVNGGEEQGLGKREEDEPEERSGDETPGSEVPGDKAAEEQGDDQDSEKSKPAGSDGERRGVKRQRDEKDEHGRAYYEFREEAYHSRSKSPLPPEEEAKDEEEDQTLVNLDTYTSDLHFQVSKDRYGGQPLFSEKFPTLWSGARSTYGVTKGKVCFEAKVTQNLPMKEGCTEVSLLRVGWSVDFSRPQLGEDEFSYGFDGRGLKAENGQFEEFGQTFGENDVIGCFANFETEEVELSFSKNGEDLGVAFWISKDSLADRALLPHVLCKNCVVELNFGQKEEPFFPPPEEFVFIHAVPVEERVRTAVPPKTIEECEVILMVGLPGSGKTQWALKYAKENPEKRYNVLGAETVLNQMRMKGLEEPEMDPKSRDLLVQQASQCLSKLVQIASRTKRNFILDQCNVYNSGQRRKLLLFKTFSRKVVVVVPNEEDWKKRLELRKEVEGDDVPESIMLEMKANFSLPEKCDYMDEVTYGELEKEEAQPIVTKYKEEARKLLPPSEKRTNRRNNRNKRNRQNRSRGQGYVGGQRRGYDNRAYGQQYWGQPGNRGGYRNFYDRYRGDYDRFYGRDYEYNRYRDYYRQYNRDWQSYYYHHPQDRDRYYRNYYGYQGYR
Chain of UniProt Q16774 (whole entry, looked up): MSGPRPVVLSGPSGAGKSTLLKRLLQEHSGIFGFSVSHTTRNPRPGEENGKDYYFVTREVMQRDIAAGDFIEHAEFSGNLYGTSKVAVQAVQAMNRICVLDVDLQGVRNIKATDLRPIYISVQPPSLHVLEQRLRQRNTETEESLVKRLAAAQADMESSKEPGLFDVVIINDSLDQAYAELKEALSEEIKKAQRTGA
Chain of UniProt O95625 (whole entry, looked up): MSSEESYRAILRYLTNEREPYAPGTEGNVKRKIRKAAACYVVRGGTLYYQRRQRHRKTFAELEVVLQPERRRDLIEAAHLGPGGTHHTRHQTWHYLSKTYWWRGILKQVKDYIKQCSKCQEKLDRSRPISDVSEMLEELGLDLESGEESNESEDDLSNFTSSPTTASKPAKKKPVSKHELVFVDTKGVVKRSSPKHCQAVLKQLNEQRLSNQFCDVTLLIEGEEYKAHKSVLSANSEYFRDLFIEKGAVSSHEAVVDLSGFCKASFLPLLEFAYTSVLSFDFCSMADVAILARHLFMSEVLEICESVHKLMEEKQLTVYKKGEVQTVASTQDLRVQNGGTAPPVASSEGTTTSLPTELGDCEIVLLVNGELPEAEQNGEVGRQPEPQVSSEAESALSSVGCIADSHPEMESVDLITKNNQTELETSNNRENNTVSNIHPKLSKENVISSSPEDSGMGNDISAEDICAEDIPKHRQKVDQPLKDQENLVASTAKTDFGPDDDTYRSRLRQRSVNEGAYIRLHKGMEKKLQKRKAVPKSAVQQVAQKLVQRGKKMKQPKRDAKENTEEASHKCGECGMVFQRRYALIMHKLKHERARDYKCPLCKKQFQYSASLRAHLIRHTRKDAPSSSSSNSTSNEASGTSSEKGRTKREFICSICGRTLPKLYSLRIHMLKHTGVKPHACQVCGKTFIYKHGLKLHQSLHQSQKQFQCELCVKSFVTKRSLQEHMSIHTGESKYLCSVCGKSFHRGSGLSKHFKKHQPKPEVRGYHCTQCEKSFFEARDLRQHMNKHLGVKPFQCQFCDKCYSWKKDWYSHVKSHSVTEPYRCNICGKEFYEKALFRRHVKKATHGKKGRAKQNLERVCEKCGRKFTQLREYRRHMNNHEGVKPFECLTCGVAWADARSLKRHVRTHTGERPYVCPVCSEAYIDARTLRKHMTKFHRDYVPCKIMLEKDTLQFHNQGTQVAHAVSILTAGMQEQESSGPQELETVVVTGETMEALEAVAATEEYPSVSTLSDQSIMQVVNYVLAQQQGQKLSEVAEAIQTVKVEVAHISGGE
Chain of UniProt Q96SW2 (whole entry, looked up): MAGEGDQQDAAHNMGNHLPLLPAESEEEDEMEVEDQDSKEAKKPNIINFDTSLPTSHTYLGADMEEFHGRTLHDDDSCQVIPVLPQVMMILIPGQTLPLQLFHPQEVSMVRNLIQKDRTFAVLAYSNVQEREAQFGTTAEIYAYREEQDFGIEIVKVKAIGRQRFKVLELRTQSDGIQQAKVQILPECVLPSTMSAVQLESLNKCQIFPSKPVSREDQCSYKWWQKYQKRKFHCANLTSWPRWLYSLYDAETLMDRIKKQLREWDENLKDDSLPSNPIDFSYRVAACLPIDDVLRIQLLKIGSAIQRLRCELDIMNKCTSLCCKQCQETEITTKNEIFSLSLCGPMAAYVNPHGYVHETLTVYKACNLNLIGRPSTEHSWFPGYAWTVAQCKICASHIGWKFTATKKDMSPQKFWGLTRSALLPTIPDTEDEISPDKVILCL
Chain of UniProt P20393 (whole entry, looked up): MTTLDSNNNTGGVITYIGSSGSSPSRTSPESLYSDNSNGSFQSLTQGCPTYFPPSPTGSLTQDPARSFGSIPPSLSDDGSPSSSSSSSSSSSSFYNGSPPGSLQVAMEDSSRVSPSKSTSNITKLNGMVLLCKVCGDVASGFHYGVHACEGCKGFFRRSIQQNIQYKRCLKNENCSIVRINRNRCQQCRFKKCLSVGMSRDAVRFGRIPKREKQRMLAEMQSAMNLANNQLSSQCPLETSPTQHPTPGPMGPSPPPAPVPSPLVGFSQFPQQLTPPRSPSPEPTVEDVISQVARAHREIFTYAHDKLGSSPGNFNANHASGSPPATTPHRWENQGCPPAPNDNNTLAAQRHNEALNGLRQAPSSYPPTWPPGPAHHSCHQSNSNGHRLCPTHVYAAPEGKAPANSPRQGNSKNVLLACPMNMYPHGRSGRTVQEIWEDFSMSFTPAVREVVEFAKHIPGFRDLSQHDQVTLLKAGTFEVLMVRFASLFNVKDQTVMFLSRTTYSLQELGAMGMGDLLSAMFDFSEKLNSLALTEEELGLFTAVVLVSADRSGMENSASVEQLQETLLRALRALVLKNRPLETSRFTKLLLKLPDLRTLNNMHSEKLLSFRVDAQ
Chain of UniProt P51575 (whole entry, unmodified, looked up): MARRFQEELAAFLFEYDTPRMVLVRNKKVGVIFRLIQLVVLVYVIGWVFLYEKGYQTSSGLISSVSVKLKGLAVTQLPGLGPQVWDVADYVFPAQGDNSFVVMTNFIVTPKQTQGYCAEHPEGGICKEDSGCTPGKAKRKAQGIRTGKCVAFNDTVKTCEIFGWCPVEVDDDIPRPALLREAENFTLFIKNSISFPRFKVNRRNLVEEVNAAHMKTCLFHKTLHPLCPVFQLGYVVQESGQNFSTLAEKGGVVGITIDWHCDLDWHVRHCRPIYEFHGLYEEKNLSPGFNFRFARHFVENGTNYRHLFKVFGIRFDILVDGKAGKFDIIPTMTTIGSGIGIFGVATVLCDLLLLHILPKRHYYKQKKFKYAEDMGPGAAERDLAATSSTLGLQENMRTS
Chain of UniProt P02763 (whole entry, looked up): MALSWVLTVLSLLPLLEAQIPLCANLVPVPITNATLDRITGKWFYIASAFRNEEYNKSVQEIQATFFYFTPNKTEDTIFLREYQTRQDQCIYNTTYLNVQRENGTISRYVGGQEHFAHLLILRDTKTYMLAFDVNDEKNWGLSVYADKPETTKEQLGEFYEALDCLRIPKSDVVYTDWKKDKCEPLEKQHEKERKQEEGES

SMILES	target	assay	system	conditions	scale	measurement	value
CC(C)OCCn1c(=S)[nH]c(=O)c2[nH]ccc21	Myeloperoxidase (MPO, Homo sapiens, UniProt P05164)	inhibitor, cholesteryl ester hydroperoxide	–	10 µM	baseline: control	LDL lipid peroxidation	4.68% and 6.2% and 12.1% and 11.7%
O=C1CCC(N2C(=O)C=C(Nc3cccc(C4(NCCc5ccc(Cl)c(C(F)(F)F)c5)CCC4)c3)C2=O)C(=O)N1 (stereo not shown)	ZBTB11/CRBN	degrader, HiBiT	MIA PaCa-2 (ZBTB11/CRBN-HiBiT knock-in)	10 µM, 24 h	–	Dmax	80%
Nc1ncnc2c1ncn2[C@@H]1O[C@H](COP(=O)(O)CP(=O)(O)OP(=O)(O)O)[C@@H](O)[C@H]1O	P2X purinoceptor 1 (P2RX1, Homo sapiens, UniProt P51575, R139P)	saturation binding	HEK293	25 nM	–	specific binding	492 CCPM and 454 CCPM
CCCCC[C@H](O)/C=C/[C@H]1[C@H](O)CC(=O)[C@@H]1C/C=C\CCCC(=O)O	Prostaglandin E2 receptor EP1 subtype (PTGER1, Homo sapiens, UniProt P34995, V337A)	IP1 accumulation, agonist	AD293	1 h, EP1 V337A mutant	–	Emax	103 ± 11.1%
CCC(C)(NCCc1cccc(C(F)(F)F)c1Cl)c1cccc(NC2=CC(=O)N(C3CCC(=O)NC3=O)C2=O)c1 (stereo not shown)	ZBTB11/CRBN	protein degradation, degrader, HiBiT luminescence	MOLT-4	–	–	Dmax	66%
N#CSCc1cc(=O)oc2cc(O)ccc12	Carbonic anhydrase 12 (CA12, Homo sapiens, UniProt O43570)	stopped-flow CO2 hydration	–	–	baseline: Ki CA I over Ki CA XII	selectivity ratio	> 4240
CC(C)C[C@H](N)C(=O)Nc1ccc2ccccc2c1	rat neuron-specific aminopeptidase	substrate	–	–	–	Km	1 µM
N#Cc1ccn2c(-c3ccncc3)c(-c3ccc(F)cc3)nc2c1	Negative regulator of the PHO system (PHO85, Candida albicans, UniProt Q9HGY5)	kinase binding, competitor, MIB/MS competition, refers to: PHO85	Candida albicans cell lysate	10 µM	baseline: DMSO	log2 fold change	0.39
CC1=C(/C=C/C(C)=C/C=C/C(C)=C/C=O)C(C)(C)CCC1	Rhodopsin (RHO, Bos taurus, UniProt P02699, G270F)	retinal release, Trp FRET	lipid bicelles	28 °C, G270F mutant	baseline: wild-type rhodopsin	relative koff	1.91 ± 0.09
C1=C/COCc2cc(ccc2OCCN2CCCC2)Nc2nccc(n2)-c2cccc(c2)COC/1	Bone morphogenetic protein receptor type-2 (BMPR2, Homo sapiens, UniProt Q13873)	–	–	concentration not given	–	percent of control	80%
NCCCCC(=O)O	Sodium- and chloride-dependent taurine transporter (SLC6A6, Homo sapiens, UniProt P31641, G62A)	binding, microscale thermophoresis	–	1.95 µM, room temperature, with: 50 nM labelled protein	higher = more binding	normalised MST signal	-0.0576
COc1cc(C(=O)NS(=O)(=O)c2ccccc2C)ccc1Cc1cn(C)c2ccc(NC(=O)OC3CCCC3)cc12	Volume-regulated anion channel subunit LRRC8C, part LRRC8A IL1 chimera (LRRC8C, Homo sapiens, UniProt Q8TDW0, C43G)	ion current, inhibitor, whole-cell patch clamp	HCT LRRC8-/- cells	3 µM, +100 mV	–	inhibition	48.8% and 47% and 31.7% and 65.3% and 66.8% and 71%
COC(=O)c1cn(C)c2ccc(-c3cccnc3)cc12	Nuclear receptor subfamily 1 group D member 1 (NR1D1, Homo sapiens, UniProt P20393)	reporter gene, Gal4 hybrid reporter	–	10 µM	baseline: vehicle	activation	1.29 fold
Nc1nc2c(ncn2[C@@H]2O[C@H](COP(=O)(O)O)[C@@H](O)[C@H]2O)c(=O)[nH]1	GUK1 (Homo sapiens, UniProt Q16774)	enzyme activity, NADH-coupled	–	7.812 µM	–	reaction rate	17.1 s⁻¹ and 11.4 s⁻¹ and 0.619 s⁻¹
CC[C@@H]1[C@H](F)C(=O)N[C@@H]1COc1nccc2cc(C(N)=O)c(OC)cc12	Cyclin-G-associated kinase (GAK, Homo sapiens, UniProt O14976)	ATP-site probe binding, ActivX profiling	THP-1 cell lysate	0.04 mM, Lys2 site	–	inhibition	3.7%
O=c1nc(SCc2cc(F)cc(C(F)(F)F)c2)nc(SCc2csc3ccc(Cl)cc23)[nH]1	DNA topoisomerase 2-alpha (TOP2A, Homo sapiens, UniProt P11388)	DNA cleavage	–	125 µM, replicate 1	–	linear DNA	11.4%

SMILES	target	assay	system	conditions	scale	measurement	value
CC(=O)N[C@H](C(=O)N1C[C@H](O)C[C@H]1C(=O)NCc1ccc(-c2scnc2C)cc1)C(C)(C)SCCCCCCNC(=O)C[C@@H]1N=C(c2ccc(Cl)cc2)c2c(sc(C)c2C)-n2c(C)nnc21	Bromodomain-containing protein 3, BD1 (BRD3, Homo sapiens, UniProt Q15059)	binding, ITC	–	25 °C, compound in cell, protein in syringe	–	−TΔS	8.2 ± 0.2 kcal/mol
CCS(=O)(=O)N1CC(CC#N)(n2cc(-c3ncnc4[nH]ccc34)cn2)C1	Alpha-1-acid glycoprotein 1 (ORM1, Homo sapiens, UniProt P02763)	fluorescence quenching	–	293 K	–	Gibbs free energy	-6.12 kcal/mol
CN1CCC[C@H]1c1cccnc1	Chrnd/Chrna1/Chrne (Mus musculus, UniProt P02716+P04756+P20782, G173E)	–	–	–	–	kon	4.71e+07 M⁻¹ s⁻¹
Nc1ncnc2c1ncn2[C@@H]1O[C@H](COP(=O)(O)OP(=O)(O)OP(=O)(O)O)[C@@H](O)[C@H]1O	P2X purinoceptor 7 (P2rx7, Rattus norvegicus, UniProt Q64663, I214A/Q143A)	ion current, agonist, two-electrode voltage clamp	Xenopus laevis oocytes	11 µM	baseline: highest concentration response	normalized current	0
C=CC(=O)N1CCC(COCC(=O)N2CCN(c3nc(-c4cnc(N)nc4C(F)F)nc(N4CCOC[C@@H]4C)n3)CC2)CC1	cGMP-dependent protein kinase 2 (PRKG2, Homo sapiens, UniProt Q13237)	KINOMEscan	–	1 µM	–	remaining binding	100%
COCCNc1nc2ccc(C#CC3(O)CCCCC3)cc2n1-c1ccnc(N)n1	Mitogen-activated protein kinase kinase kinase kinase 4 (MAP4K4, Homo sapiens, UniProt O95819)	enzyme activity, inhibitor, Z'-LYTE	–	1 µM	baseline: no-inhibitor control	remaining kinase activity	27.6%
[2H]c1cc(C)c(NC(=O)c2cnc(Nc3cc(N4CCCCC4)nc(C)n3)s2)c(Cl)c1	Vascular endothelial growth factor receptor 1 (FLT1, Homo sapiens, UniProt P17948)	–	–	0.01 µM	–	inhibition	< 30%
N#Cc1ccc2c(CN3CCOCC3)cc(-c3ccc([C@H]4CCC(=O)N4)cc3)nc2c1	Advanced glycosylation end product-specific receptor, with DIAPH1 (AGER, Homo sapiens, UniProt Q15109)	acceptor photobleaching	HEK-293T expressing RAGE-eCFP	0.1 µM, 60 min	–	FRET efficiency	4.7 ± 0.5%
O=C(O)c1ccc(Nc2ncc3c(n2)-c2ccc(Cl)cc2C(c2c(F)cccc2F)=NC3)cc1	MAPKAP-K2(h)	kinase activity	–	1 µM	–	remaining activity	101%
CC(C)=CCC/C(C)=C/CC/C(C)=C/CC/C(C)=C/COP(=O)(O)OP(=O)(O)O	SpS	substrate, pyrophosphate release	–	with: MgCl2 2.5 mM	–	Km	6.74 µM
O=C(Nc1cccc(C(F)(F)F)c1)N1CCN(c2cccc(C(F)(F)F)c2)CC1	CatSper channel complex (Homo sapiens, UniProt Q7RTX7+Q86XQ3+Q8NEC5+Q96P56)	ion current, whole-cell patch clamp	human sperm	10 µM, at -80 mV	–	inward current density	-3.4 ± 0.2 pA/pF
O=C(COP(=O)(O)O)[C@@H](O)[C@H](O)[C@H](O)COP(=O)(O)O	Heterogeneous nuclear ribonucleoprotein U-like protein 2 (Homo sapiens, UniProt Q1KMD3)	thermal proteome profiling, refers to: HNRNPUL2	HepG2 cell lysate	concentration not given, 57 over 37 °C	baseline: compound over control	thermal stability ratio	0.824 and 0.625 and 0.529
CCOc1ccc(NC(=O)O[C@@H](Cn2nc(C(C)C)cc2C(C)C)C(C)C)cc1	Neuronal acetylcholine receptor; alpha4/beta2, (α4)2(β2)3 stoichiometry (Homo sapiens, UniProt P17787+P43681)	ACh-evoked current, two-electrode voltage clamp	–	1 µM, high-sensitivity stoichiometry, with: ACh 10 µM	baseline: ACh alone	current	957 ± 69%
CCc1cnn2c(NCc3ccc[n+]([O-])c3)cc(N3CCCC[C@H]3CCO)nc12	Bromodomain-containing protein 4 (BRD4, Homo sapiens, UniProt O60885)	19F NMR, refers to: tyrosine 119	–	186 µM	baseline: free protein	chemical shift change	-0.016 ppm
Nc1ncnc2c1ncn2[C@@H]1O[C@H](COP(=O)(O)OP(=O)(O)O)[C@@H](O)[C@H]1O	Creatine kinase U-type, mitochondrial (CKMT1A, Homo sapiens, UniProt P12532, D359N)	substrate, Kinase-Glo luminescence	–	pH 7.0, reverse reaction, D321N mutant, with: second substrate in excess	–	kcat	12 ± 5 s⁻¹

Some of these lines once more:
SMILES	target	assay	system	conditions	scale	measurement	value
CC[C@@H]1[C@H](F)C(=O)N[C@@H]1COc1nccc2cc(C(N)=O)c(OC)cc12	Cyclin-G-associated kinase (GAK, Homo sapiens, UniProt O14976)	ATP-site probe binding, ActivX profiling	THP-1 cell lysate	0.04 mM, Lys2 site	–	inhibition	3.7%
O=c1nc(SCc2cc(F)cc(C(F)(F)F)c2)nc(SCc2csc3ccc(Cl)cc23)[nH]1	DNA topoisomerase 2-alpha (TOP2A, Homo sapiens, UniProt P11388)	DNA cleavage	–	125 µM, replicate 1	–	linear DNA	11.4%
CC(=O)N[C@H](C(=O)N1C[C@H](O)C[C@H]1C(=O)NCc1ccc(-c2scnc2C)cc1)C(C)(C)SCCCCCCNC(=O)C[C@@H]1N=C(c2ccc(Cl)cc2)c2c(sc(C)c2C)-n2c(C)nnc21	Bromodomain-containing protein 3, BD1 (BRD3, Homo sapiens, UniProt Q15059)	binding, ITC	–	25 °C, compound in cell, protein in syringe	–	−TΔS	8.2 ± 0.2 kcal/mol
CCS(=O)(=O)N1CC(CC#N)(n2cc(-c3ncnc4[nH]ccc34)cn2)C1	Alpha-1-acid glycoprotein 1 (ORM1, Homo sapiens, UniProt P02763)	fluorescence quenching	–	293 K	–	Gibbs free energy	-6.12 kcal/mol
CN1CCC[C@H]1c1cccnc1	Chrnd/Chrna1/Chrne (Mus musculus, UniProt P02716+P04756+P20782, G173E)	–	–	–	–	kon	4.71e+07 M⁻¹ s⁻¹
